# Published values pooled from the literature.
# Parts stem from different laboratories: compare values within a part only. Changes are numbered by the printed parent chain.

# Study 1
# Target: CCNE1, cyclin fold, Cln2 fusion (human)
# Method: yeast growth competition, sequencing
# Matrix: yeast
# Notes: weak parent motif
# Relative to: not given
# Direction: higher = stronger binding
# Starting sequence: WEE1 docking peptide (human); HKTFRKLRLFDTP
Substitution,normalised enrichment score
HKTFRKLRSFDTP [L9S],0.568
HKTFRKCRLFDTP [L7C],1.35
MKTFRKLRLFDTP [H1M],0.339
HKTVRKLRLFDTP [F4V],0.0319
HKTFRKARLFDTP [L7A],-0.444
WKTFRKLRLFDTP [H1W],1.58
HKTFRKLELFDTP [R8E],0.618

# Study 2
# Target: RNA binding protein fox-1 homolog 2, RRM domain, GST-SBP tag (RBFOX2, Homo sapiens, UniProt O43251-10, residues 100-194)
# Method: RNA Bind-n-Seq
# Form: RNA
# Matrix: in vitro
# Tested at: 365 nM
# Notes: natural RNA segment, single round, ends assumed
# Relative to: no-protein control
# Direction: higher = stronger binding
# All sequences stand within: GGGAGUUCUACAGUCCGACGAUC … UGGAAUUCUCGGGUGCCAA
# Target sequence (chain): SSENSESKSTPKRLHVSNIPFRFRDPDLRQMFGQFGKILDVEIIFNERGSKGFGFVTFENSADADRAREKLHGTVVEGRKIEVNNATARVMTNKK
Oligonucleotide,RBNS enrichment (R)
UUUAACUGGGGACCAUCUGUGAAAUUAAUUUUCCAUCCAGACAGCUGCUGUGAGCAAAUGAACAUAAAUGCUCGCUGGAAAUUUACUAACCAGUUUUUAUAUUGACCUGC,0.373
UUCCUUUUAGUUGCCACAAAUAUUCAGUUUUGUUUUAUCCAUCAUGUCCCCCAUAUGCAUGUAAUGAAACAUUUGUGAAAAUCACUUUAAUAAUAAACAGGAAAUGAACC,1.4
UUCCAGACCAACUGUAGAGAUACCUGGCAUUUUGAAGAAAGCCUAGACUGGAGAGCAGGGCCUCUCUUGGGAAGGACACAAGGCGGGCAAGGCUGCUGGCAGACUUCUCC,0.445
UUCUGCUGGGCAGAACACAUGGGUUAAAUCUGUGUAGAGAGUUUUCCUCAUCCUCCAUCCACAAGUGUCCUUCCAAGCAAGGUCCCCCUCUAGACAGUAGACAAGGACCC,0.222
CUGACCUAGGGAGCCCUACGAAGUUGUUAACACAGUACUUCUUAGCAUUCCUACGUUAUCCAUAUGUAUAUUUAUUUGUAUGUGUUUCACGUUAUAAAUGUUUUGUAGUG,0.259
UGUCUCCUAAAGGGUCGGUUUUGUUACGCAACACGAAGAAUGCUGUCUCAGCCUUGUUUUUCUAGAGUUGUGUUUUUCAGUCAUUUCUUCAAGAAAAACUAAAAUGAUUU,0.364
GCAGAAGGAAGGCGGAGGGUGGAGGCCUUGCCUUUCCAUAUUCACCUAGGUCUUGUCUUUCAACUUGUUGGUAGAAGUUACAAAUUAUUCUCAAAACUGUCUGUCUCAUC,0.531
UGCCGCCUCAGCCUGGCGCAGCUGUCAGCCUUCUGAGCACCCAGCGAGGAGGGGCGGGGGCAGGGGCUGCAGCCCCCAGCGCUGCCUUUGCGGAUUCUGUUUUUGAGCCG,0.383
CCACUGUCCCAUCACCCUUUACCUAGCACUUGAUACCCUCCUGCAGUAGCUUCCUGCCUGGGAGAUGGCUCUCUCUGCAGAAGUCUGGUGUUUUAGCCUUCAGGUGUUUG,0.358
CUCUGCUGCAUGGGACUGGGCCAGCCCAGCCCUCUGAAGUCUGGAGCGCCACAUGUUCCCUAUAAGGCCUGAAGCCCACAGCCCUGAAACAGUGGGGCCAGCUGCCCUGG,0.168
CUCCCAUUGCCCAAGAGAGAGGGCAGGGAACAGGCUACUGUCCUUCCCUGUGGAAUUGCCGAGAAAUCUAGCACCUUGCAUGCUGGAUCUGGGCUGCGGGGAGGCUCUUU,0.795
CUGUUACCAUUCAUUGUCUGUGCUGUUUCCCAUUGUGCCCAGCAGUAGCAACAACAAGAUCACAUGGGUGGGGACCCUAGGUCCGGUGGCCAGCUUAUGGCAGGAGCAAA,0.418

# Study 3
# Target: ABI1, truncated, D143A, DHFR fusion (Arabidopsis thaliana)
# Method: DHFR PCA, deep sequencing
# Matrix: yeast
# Notes: methotrexate growth selection, single substitutions
# Added: (+)-ABA 0.39 µM
# Relative to: wild-type fitted maximum
# Direction: higher = stronger binding
# Starting sequence: PYL1, truncated, DHFR fusion (Arabidopsis thaliana); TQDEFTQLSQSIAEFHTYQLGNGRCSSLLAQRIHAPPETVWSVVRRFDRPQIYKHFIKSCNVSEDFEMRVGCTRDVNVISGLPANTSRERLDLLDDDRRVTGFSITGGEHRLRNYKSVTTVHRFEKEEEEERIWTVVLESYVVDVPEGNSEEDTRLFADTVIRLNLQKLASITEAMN; partner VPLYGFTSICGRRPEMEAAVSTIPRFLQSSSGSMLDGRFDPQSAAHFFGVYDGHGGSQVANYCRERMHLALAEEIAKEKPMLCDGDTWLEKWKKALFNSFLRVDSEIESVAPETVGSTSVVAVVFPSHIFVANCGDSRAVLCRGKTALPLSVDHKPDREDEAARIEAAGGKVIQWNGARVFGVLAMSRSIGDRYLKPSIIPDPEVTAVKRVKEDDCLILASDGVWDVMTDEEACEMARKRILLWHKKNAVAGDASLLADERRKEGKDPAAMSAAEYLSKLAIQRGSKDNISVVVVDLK
Substitution,relative binding score [%]
V143C,46.3
L8K,-11.2
L29M,6.27
M176T,26.7
Y53K,-10.3
T1E,49.6
E38I,-7.4

# Further values, each from its own experiment
Substance,target,test,test system,setting,scale,measurement,value
"PhoQ, residues 284 288 289 292 302 303 SLANIV","PhoP, residues 12 14 15 18 19 LHATL (Escherichia coli, UniProt P23836)","Sort-seq, measured: YFP reporter",E. coli,"PhoQ-PhoP variant library, added: 10 µM Mg2+","relative to: high Mg2+ state, higher = stronger signaling",fold induction,8.14

# Some of these lines once more (study 2):
Oligonucleotide,RBNS enrichment (R)
CCACUGUCCCAUCACCCUUUACCUAGCACUUGAUACCCUCCUGCAGUAGCUUCCUGCCUGGGAGAUGGCUCUCUCUGCAGAAGUCUGGUGUUUUAGCCUUCAGGUGUUUG,0.358
UUCCAGACCAACUGUAGAGAUACCUGGCAUUUUGAAGAAAGCCUAGACUGGAGAGCAGGGCCUCUCUUGGGAAGGACACAAGGCGGGCAAGGCUGCUGGCAGACUUCUCC,0.445
